Experimental data collected from several papers.
Compare with care: the assays were run in different laboratories. Values joined by “and” are separate records of one study, mostly repeats; a detail may differ. ± marks the error that the study gave.
BCHE: Cholinesterase (BCHE, Equus caballus, UniProt P81908)
UniProt P81908, sequence (whole entry, looked up): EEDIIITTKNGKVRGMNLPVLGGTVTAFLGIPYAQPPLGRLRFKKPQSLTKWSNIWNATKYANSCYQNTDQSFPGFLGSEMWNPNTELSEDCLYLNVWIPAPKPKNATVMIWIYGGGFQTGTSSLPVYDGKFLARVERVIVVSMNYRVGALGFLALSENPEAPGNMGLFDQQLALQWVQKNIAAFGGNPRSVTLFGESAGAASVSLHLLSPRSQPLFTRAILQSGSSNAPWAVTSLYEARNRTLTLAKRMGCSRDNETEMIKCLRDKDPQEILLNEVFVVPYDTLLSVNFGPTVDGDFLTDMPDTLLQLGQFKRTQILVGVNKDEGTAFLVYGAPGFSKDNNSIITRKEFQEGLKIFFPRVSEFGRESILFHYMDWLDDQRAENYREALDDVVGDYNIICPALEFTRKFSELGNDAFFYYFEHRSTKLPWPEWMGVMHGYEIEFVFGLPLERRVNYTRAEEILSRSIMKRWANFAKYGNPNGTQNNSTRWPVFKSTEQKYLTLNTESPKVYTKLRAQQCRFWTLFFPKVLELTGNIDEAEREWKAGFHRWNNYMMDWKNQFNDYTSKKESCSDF
GSK3 short isoform: GSK3, short isoform (Trypanosoma brucei, UniProt Q388M1)
sfp: sfp (Bacillus subtilis, UniProt P39135)
UniProt P10408, sequence (whole entry, looked up): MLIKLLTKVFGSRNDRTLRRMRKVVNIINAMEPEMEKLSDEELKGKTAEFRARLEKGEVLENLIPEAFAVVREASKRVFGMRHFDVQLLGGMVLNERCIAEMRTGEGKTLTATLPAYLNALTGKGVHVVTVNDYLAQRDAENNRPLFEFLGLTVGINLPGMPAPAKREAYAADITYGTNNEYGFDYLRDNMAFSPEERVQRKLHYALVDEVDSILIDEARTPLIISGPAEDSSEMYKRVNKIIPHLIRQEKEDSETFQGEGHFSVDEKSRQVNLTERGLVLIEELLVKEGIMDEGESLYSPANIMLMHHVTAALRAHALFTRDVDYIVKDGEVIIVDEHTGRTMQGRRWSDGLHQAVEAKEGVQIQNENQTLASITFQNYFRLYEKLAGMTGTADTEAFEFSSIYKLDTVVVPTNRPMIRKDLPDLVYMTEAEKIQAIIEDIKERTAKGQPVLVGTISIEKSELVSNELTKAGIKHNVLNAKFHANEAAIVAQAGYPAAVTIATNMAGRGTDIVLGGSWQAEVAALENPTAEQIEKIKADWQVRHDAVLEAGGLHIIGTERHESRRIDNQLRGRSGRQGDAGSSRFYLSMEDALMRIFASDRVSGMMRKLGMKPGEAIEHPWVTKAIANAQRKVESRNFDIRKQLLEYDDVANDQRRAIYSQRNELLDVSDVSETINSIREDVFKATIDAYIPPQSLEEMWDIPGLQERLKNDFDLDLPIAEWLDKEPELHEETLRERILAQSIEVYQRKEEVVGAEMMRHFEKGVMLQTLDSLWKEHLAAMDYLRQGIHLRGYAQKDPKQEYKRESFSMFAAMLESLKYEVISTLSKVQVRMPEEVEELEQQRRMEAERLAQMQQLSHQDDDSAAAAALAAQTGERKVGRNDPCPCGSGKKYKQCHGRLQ
UniProt P39135, sequence (whole entry, looked up): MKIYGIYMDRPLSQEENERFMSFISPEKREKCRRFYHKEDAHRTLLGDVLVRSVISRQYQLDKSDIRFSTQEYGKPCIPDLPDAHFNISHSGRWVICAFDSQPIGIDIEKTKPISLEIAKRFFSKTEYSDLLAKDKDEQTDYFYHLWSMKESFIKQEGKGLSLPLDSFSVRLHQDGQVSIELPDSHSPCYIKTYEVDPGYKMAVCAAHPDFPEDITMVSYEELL
UniProt Q16678, sequence (whole entry, looked up): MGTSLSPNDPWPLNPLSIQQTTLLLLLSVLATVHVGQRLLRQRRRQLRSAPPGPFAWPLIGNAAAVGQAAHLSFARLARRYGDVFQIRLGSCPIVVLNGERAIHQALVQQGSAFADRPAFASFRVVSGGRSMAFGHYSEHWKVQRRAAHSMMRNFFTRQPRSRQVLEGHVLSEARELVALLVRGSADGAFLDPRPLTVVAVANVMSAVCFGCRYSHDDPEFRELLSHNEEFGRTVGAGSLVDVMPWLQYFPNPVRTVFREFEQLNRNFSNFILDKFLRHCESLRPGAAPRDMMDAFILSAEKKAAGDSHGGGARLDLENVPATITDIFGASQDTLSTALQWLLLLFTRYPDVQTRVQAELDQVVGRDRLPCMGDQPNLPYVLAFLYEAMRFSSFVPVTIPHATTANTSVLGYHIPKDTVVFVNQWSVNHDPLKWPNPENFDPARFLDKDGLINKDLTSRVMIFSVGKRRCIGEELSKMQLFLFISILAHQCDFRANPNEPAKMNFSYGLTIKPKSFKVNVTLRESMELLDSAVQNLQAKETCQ
UniProt P09958, sequence (whole entry, looked up): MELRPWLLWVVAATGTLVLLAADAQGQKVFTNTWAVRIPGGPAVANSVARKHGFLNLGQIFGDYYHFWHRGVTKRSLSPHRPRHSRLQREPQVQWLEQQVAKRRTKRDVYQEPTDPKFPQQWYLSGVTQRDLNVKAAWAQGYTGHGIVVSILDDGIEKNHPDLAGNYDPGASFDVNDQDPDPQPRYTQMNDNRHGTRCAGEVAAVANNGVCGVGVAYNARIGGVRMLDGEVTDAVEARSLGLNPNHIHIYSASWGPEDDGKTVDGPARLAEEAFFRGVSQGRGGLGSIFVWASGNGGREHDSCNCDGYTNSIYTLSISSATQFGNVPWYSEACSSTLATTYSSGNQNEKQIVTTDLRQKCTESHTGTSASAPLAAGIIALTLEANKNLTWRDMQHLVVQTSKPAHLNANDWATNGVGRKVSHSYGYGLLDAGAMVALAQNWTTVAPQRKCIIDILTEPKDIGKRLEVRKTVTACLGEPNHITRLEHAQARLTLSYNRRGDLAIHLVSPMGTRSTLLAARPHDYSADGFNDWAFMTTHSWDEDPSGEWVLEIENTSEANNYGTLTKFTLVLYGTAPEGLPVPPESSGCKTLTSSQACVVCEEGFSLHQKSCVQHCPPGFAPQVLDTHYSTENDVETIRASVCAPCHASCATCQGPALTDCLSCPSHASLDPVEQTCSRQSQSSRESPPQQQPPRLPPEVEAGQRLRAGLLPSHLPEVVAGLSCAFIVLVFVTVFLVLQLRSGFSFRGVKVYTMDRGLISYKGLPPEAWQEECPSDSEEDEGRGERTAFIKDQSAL
UniProt P00519, sequence (whole entry, looked up): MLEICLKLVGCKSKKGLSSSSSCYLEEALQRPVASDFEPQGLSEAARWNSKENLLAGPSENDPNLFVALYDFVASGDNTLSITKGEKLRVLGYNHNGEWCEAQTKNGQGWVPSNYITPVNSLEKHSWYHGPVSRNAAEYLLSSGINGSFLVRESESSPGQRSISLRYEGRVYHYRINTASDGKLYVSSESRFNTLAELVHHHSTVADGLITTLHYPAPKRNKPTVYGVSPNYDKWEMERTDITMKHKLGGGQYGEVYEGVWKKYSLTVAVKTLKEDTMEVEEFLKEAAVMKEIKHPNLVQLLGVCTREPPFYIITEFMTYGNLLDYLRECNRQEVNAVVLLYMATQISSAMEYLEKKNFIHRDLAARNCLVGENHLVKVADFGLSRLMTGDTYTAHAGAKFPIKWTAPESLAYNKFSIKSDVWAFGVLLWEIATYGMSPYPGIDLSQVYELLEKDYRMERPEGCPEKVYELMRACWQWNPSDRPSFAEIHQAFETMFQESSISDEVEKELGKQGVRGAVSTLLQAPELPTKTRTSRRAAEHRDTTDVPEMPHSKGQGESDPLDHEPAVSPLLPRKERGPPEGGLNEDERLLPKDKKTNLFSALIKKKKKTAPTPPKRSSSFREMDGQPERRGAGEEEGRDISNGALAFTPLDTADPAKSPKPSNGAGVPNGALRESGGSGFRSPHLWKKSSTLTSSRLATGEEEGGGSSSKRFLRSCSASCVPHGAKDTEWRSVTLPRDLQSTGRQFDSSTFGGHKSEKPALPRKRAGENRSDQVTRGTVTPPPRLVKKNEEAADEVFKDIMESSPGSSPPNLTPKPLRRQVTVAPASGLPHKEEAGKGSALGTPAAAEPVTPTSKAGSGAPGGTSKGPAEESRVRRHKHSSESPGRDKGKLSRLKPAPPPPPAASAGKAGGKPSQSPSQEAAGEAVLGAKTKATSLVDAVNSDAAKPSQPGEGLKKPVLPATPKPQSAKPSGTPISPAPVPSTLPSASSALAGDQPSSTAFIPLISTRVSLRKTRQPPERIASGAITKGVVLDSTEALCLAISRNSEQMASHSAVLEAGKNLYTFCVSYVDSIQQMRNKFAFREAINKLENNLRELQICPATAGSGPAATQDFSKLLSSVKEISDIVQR
UniProt P10635, sequence (whole entry, looked up): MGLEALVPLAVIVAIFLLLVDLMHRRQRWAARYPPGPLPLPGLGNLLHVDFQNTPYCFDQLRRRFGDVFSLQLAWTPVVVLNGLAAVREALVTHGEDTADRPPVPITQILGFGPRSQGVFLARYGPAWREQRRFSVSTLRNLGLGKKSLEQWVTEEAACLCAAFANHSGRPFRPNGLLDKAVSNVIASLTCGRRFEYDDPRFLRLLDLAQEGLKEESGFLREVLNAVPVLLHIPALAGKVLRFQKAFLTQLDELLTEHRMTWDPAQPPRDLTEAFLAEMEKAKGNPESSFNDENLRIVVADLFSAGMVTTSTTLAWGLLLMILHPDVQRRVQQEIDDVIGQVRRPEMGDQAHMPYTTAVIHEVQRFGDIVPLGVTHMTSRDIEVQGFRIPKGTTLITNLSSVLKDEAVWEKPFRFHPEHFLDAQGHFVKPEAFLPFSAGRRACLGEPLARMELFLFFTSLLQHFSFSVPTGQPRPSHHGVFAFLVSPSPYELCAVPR
UniProt P00586, sequence (whole entry, looked up): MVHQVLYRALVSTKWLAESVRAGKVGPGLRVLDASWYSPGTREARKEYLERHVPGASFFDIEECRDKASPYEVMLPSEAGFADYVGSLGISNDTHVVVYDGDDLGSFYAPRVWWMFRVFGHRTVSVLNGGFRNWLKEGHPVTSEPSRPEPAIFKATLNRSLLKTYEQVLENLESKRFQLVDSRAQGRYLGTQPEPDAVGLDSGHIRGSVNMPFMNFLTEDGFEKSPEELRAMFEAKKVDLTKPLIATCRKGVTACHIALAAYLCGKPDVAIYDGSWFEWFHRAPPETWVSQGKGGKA

SMILES | target | test | system | conditions | IC50
CCN1/C(=C/C(C)=O)Sc2ccc(OC)cc21 | ERRα (human) | reporter gene, antagonist, luciferase reporter qHTS |  |  | 11900 nM
Cc1cccc(C)c1OCC(=O)N[C@@H](Cc1ccccc1)[C@@H](O)C[C@H](Cc1ccccc1)NC(=O)[C@H](C(C)C)N1CCCNC1=O | Replicase polyprotein 1ab, main protease (Feline coronavirus, UniProt Q98VG9) | enzyme activity, inhibitor, FRET |  |  | 225000 nM
CO[C@H]1CC=C2CCN3CCC4=C(CC(=O)OC4)[C@]23C1 | Neuronal acetylcholine receptor; alpha4/beta2 (Rattus norvegicus, UniProt P09483+P12390) | ligand displacement, radioligand |  | cell membranes | 345 nM
COc1ccc(CCN2CCN(c3ccccc3OC)CC2)cc1OC | Cytochrome P450 2D6 (CYP2D6, Homo sapiens, UniProt P10635) | enzyme activity, inhibitor | human, liver microsomes |  | > 100000 nM
CC1=C(C(=O)NC(=O)c2cnccn2)C(c2cccc(Cl)c2)NC(=S)N1 (stereo not shown) | BCHE |  |  |  | 4310 ± 10 nM
O=C(OC(C(F)(F)F)C(F)(F)F)N1CCN(Cc2cccc(Oc3ccccc3)c2)CC1 | Faah (Mus musculus, UniProt O08914) | competitive ABPP | mouse brain membrane proteome |  | 31000 nM
CCN1C[C@H](C)n2c(c(O)c3c(=O)n(Cc4ccc(F)c(Cl)c4)nc(C(=O)NC)c32)C1=O | Gag-Pol polyprotein, integrase (gag-pol, Human immunodeficiency virus 1, UniProt P12497) | concerted integration, inhibitor, measured: donor-donor products |  | 2 h, 37 °C | 21 ± 3 nM
Cc1ncccc1OC(=O)NCCCCCn1ccc2ccc(F)cc21 | BCHE | enzyme activity, inhibitor, HPLC |  |  | 400 nM
CC(=O)Nc1ccc2ccn(-c3cc(Nc4ccccc4)n4ncc(C#N)c4n3)c2c1 | CSNK2A2 (Homo sapiens, UniProt P19784) | target engagement in cells, BRET |  |  | 25.1 nM
Oc1c(Cl)cc(-c2ccccc2)cc1Cl | Sulfotransferase 2A6 (Sult2a6, Rattus norvegicus, UniProt P22789) | enzyme activity, inhibitor |  | 6 min, 37 °C, added: DHEA 10 µM | 64000 nM
Cn1c(=O)c2c(nc(CN3CCC(C(N)=O)CC3)n2CCCc2ccccc2)n(C)c1=O | ALDH1A1 (Homo sapiens, UniProt P00352) | enzyme activity, inhibitor, absorbance |  | pH 7.5 | 2000 nM
CC(=O)OO | Helix pomatia β-glucuronidase | enzyme activity |  | 1 h, pH 7.0, 37 °C, added: p-nitrophenyl glucuronide | 23300 ± 820 nM
Cn1cc(C2=C(c3cn(CCCN)c4ccccc34)C(=O)NC2=O)c2ccccc21 | GSK3 short isoform | enzyme activity, inhibitor |  | 90 min, 30 °C, added: ATP 2 µM | 1340 nM
CN1C(=O)[C@]23SS[C@@]1(C)C(=O)N2[C@H]1Nc2ccccc2[C@@]1([C@@]12c4ccccc4N[C@@H]1N1C(=O)[C@@]4(C)SS[C@]1(C(=O)N4C)[C@H]2O)[C@@H]3O | EZH2 (Homo sapiens, UniProt Q15910) | methyltransferase activity, inhibitor |  | added: 1 µM [3H]SAM | > 10000 nM
O=c1[nH]ccc2nc(NC3CCCNC3)nc(Nc3ccc(S(=O)(=O)N4CCOCC4)cc3)c12 (stereo not shown) | ROP18 (Toxoplasma gondii, UniProt Q2PAY2) | enzyme activity, inhibitor |  |  | 300 nM
CC[C@H](C)[C@H]1O[C@]2(CC[C@@H]1C)C[C@@H]1C[C@@H](C/C=C(\C)[C@@H](O[C@H]3C[C@H](OC)[C@@H](O[C@H]4C[C@H](OC)[C@@H](O)[C@H](C)O4)[C@H](C)O3)[C@@H](C)/C=C/C=C3\CO[C@@H]4[C@H](O)C(C)=C[C@@H](C(=O)O1)[C@]34O)O2 | Thiosulfate sulfurtransferase (TST, Bos taurus, UniProt P00586) | enzyme activity, inhibitor |  | Rho counter-screen | > 100000 nM
CC12CCC(OC(=O)NCCCn3ccnc3)CC1CCC1C2CCC2(C)C(c3ccc(=O)oc3)CCC12O (stereo not shown) | Sodium/potassium-transporting ATPase subunit alpha-1 (atp1a1, Xenopus laevis, UniProt Q92123) | Na+,K+ pump current, inhibitor, two-electrode voltage clamp | uninjected Xenopus laevis oocytes | -60 mV holding | ~20 nM and 21 nM

SMILES | target | test | system | conditions | IC50
CCCCCCCCCC(=O)N[C@@H](CCCN=C(N)N)C(=O)N[C@H](C(=O)N[C@@H](CCCCN)C(=O)N[C@@H](CCCN=C(N)N)C(=O)CCl)C(C)C | Furin (FURIN, Homo sapiens, UniProt P09958) | enzyme activity, inhibitor, fluorescence |  |  | 2.18 nM
CC#Cc1ccc2ccc3cccc4ccc1c2c34 | Cytochrome P450 1B1 (CYP1B1, Homo sapiens, UniProt Q16678) | enzyme activity, inhibitor |  | 5 s, pH 7.4 | < 50 nM
O=c1oc(Cl)c(Cl)c2ccccc12 | Immunoglobulin A1 protease autotransporter (Haemophilus influenzae, UniProt P44969) | inhibitor |  |  | 400 nM and 410 nM
C[C@H]1C[C@H]2[C@@H]3CCC4=CC(=O)C=C[C@]4(C)[C@@]3(Cl)[C@@H](O)C[C@]2(C)[C@@]1(O)C(=O)CO | ABL1 (Homo sapiens, UniProt P00519) | kinase activity, ADP luminescence |  | added: 200 µM ATP | > 10000 nM
CC(C)(C)c1ccc(/C=C/C(=O)Nc2ccc3c(c2)OCCO3)cc1 | ERRα (human) | reporter gene, antagonist, luciferase reporter qHTS |  |  | 2660 nM
[Ni+2] | Trpv1 (Rattus norvegicus, UniProt O35433) | transporter uptake, inhibitor, radiometric |  |  | 62000 nM
O=C(O)c1ccc(NCc2cc(Cl)cc(Cl)c2O)cc1O | Nitric oxide synthase 1, PDZ domain (Homo sapiens, UniProt P29475) | PSD95-nNOS binding disruption, inhibitor, AlphaScreen |  |  | 12800 nM
CC1=C(O)C(=O)C=C2C1=CC=C1[C@@]2(C)CC[C@@]2(C)[C@@H]3C[C@](C)(C(=O)O)CC[C@]3(C)CC[C@]12C | Androgen receptor (AR, Homo sapiens, UniProt P10275) | ligand displacement in cells, radioligand |  |  | 58 nM
O=Nc1ccc2oc(=O)ccc2c1 | sfp | phosphopantetheinylation, inhibitor, fluorescence polarization |  | 45 min, pH 7.6, 10% DMSO, added: VibB 10 µM and rhodamine-CoA 5 µM | 3000 ± 1000 nM
O=C1Nc2ccccc2/C1=C/c1cnc[nH]1 | GSK3 short isoform | enzyme activity, inhibitor |  | 90 min, 30 °C, added: ATP 2 µM | 2440 nM
O=C(COc1ccc(I)cc1)N[C@H]1CCOC1=O | rhlR (Pseudomonas aeruginosa, UniProt P54292) | reporter gene, antagonist |  |  | 17300 nM
Nc1cccc2c1C(=O)c1cccc(N)c1C2=O | mRNA triphosphatase Cet1 (Trypanosoma brucei brucei, UniProt Q582T2) | enzyme activity, Transcreener ADP fluorescence polarization |  | 3 h, added: 50 µM ATP | 4700 nM
COc1ccc(NC(=O)N2CCCCN3[C@H](CN4CCC4)[C@H](c4ccc(C#Cc5ccccc5)cc4)[C@@H]3C2)cc1 | Phenylalanine--tRNA ligase alpha subunit (Plasmodium falciparum, UniProt Q8I246) | aminoacylation activity, inhibitor |  |  | 162 nM
C=CCN=C=S | MIF (Homo sapiens, UniProt P14174) | enzyme activity, inhibitor |  | with preincubation | 3690 nM
FC(F)(F)c1cc(-c2nnc(Sc3cc(Cl)nc(Sc4ccccc4)n3)[nH]2)cc(C(F)(F)F)c1 | secA (Escherichia coli, UniProt P10408) | protein translocation, inhibitor | 773 inverted membranes | added: proOmpA | 1500 to 2000 nM and 2000 nM
Cc1cncc(OC(=O)NCCCCCn2ccc3ccc(F)cc32)c1 | BCHE | enzyme activity, inhibitor, HPLC |  |  | 240 nM
CC(C)(COP(=O)(O)OP(=O)(O)OC[C@H]1O[C@@H](n2cnc3c(N)ncnc32)[C@H](O)[C@@H]1OP(=O)(O)O)[C@@H](O)C(=O)NCCC(=O)NCCS | sfp |  |  |  | 4200 nM

Repeated from above:
SMILES | target | test | system | conditions | IC50
CCCCCCCCCC(=O)N[C@@H](CCCN=C(N)N)C(=O)N[C@H](C(=O)N[C@@H](CCCCN)C(=O)N[C@@H](CCCN=C(N)N)C(=O)CCl)C(C)C | Furin (FURIN, Homo sapiens, UniProt P09958) | enzyme activity, inhibitor, fluorescence |  |  | 2.18 nM
CN1C(=O)[C@]23SS[C@@]1(C)C(=O)N2[C@H]1Nc2ccccc2[C@@]1([C@@]12c4ccccc4N[C@@H]1N1C(=O)[C@@]4(C)SS[C@]1(C(=O)N4C)[C@H]2O)[C@@H]3O | EZH2 (Homo sapiens, UniProt Q15910) | methyltransferase activity, inhibitor |  | added: 1 µM [3H]SAM | > 10000 nM
CC[C@H](C)[C@H]1O[C@]2(CC[C@@H]1C)C[C@@H]1C[C@@H](C/C=C(\C)[C@@H](O[C@H]3C[C@H](OC)[C@@H](O[C@H]4C[C@H](OC)[C@@H](O)[C@H](C)O4)[C@H](C)O3)[C@@H](C)/C=C/C=C3\CO[C@@H]4[C@H](O)C(C)=C[C@@H](C(=O)O1)[C@]34O)O2 | Thiosulfate sulfurtransferase (TST, Bos taurus, UniProt P00586) | enzyme activity, inhibitor |  | Rho counter-screen | > 100000 nM
